Results pooled from the literature.
Compare with care: the assays were run in different laboratories. Several values in a cell are separate wells, animals, samples, runs or records. ± marks the error that the study gave.
MAP3K12: Mitogen-activated protein kinase kinase kinase 12 (MAP3K12, Homo sapiens, UniProt Q12852)
GAP50: Glideosome-associated protein 50 (GAP50, Plasmodium falciparum, UniProt Q8I2X3)
Kir3.1/Kir3.2: Kir3.1/Kir3.2 (Homo sapiens, UniProt P48051+P48549)
FFAR4: Free fatty acid receptor 4 (FFAR4, Homo sapiens, UniProt Q5NUL3)
TRPM8: Transient receptor potential cation channel subfamily M member 8 (TRPM8, Homo sapiens, UniProt Q7Z2W7)
NADH dehydrogenase [ubiquinone] iron-sulfur protein 7, mitochondrial/NADH dehydrogenase [ubiquinone] iron-sulfur protein 2, mitochondrial/MT-ND1: NADH dehydrogenase [ubiquinone] iron-sulfur protein 7, mitochondrial/NADH dehydrogenase [ubiquinone] iron-sulfur protein 2, mitochondrial/MT-ND1 (Homo sapiens, UniProt O75251+O75306+P03886)
PDE1C isoform PDE1C2: Dual specificity calcium/calmodulin-dependent 3',5'-cyclic nucleotide phosphodiesterase 1C, isoform PDE1C2 (PDE1C, Homo sapiens, UniProt Q14123)
Maoa: Amine oxidase [flavin-containing] A (Maoa, Rattus norvegicus, UniProt P21396)
TOP2A: DNA topoisomerase 2-alpha (TOP2A, Homo sapiens, UniProt P11388)
T1: ssDNA, aptamer; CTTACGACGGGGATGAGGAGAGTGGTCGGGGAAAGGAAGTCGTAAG

O=C(O)C1CCCNC1 (centres unmarked) — normalised MST signal (Sodium- and chloride-dependent taurine transporter (SLC6A6, Homo sapiens, UniProt P31641, G62A); binding, microscale thermophoresis; 31.3 µM, room temperature, with: 50 nM labelled protein; higher = more binding): 0.0335
C=CC(=O)N1CCC(C(=O)NCC(=O)N2CCN(c3nc(-c4cnc(N)nc4C(F)F)nc(N4CCOCC4)n3)CC2)CC1 — remaining binding (MAP3K12; KINOMEscan; 1 µM): 97%
COc1cc2c(cc1O)[C@@H](Cc1ccc(O)cc1)[N+](C)(C)CC2 — ΔTm (GAP50; differential scanning fluorimetry): 2 °C
CC1=NCC[C@@H](C(=O)O)N1 — thermal shift (uncharacterized protein (Pelagibacter ubique, UniProt Q4FKZ8); differential scanning fluorimetry; Candidatus Pelagibacter ubique; in-house screen): 13.9 °C
CCc1cc(NC(=O)COc2cccc(Cl)c2Cl)n(C2CCC(F)(F)CC2)n1 — Emax (Kir3.1/Kir3.2; thallium flux, activator; HEK293; reference: standard compound): 72%
COc1cc(O)c2c(c1)oc(=O)c1c3cc(O)c(O)cc3oc21 — ΔH (Alpha-glucosidase MAL12 (MAL12, Saccharomyces cerevisiae S288c, UniProt P53341); fluorescence quenching; 304 K): -25 kcal/mol
O=c1cc(NCCOc2ccccc2)[nH]c(=O)[nH]1 — inhibition (FFAR4; antagonist, β-arrestin recruitment; CHO cells; 10 µM): 27 ± 6%
O=C(NC1CCC1)c1ccc2nc(-c3cccc(NS(=O)(=O)NCCN4CCCCC4)c3)cn2c1 — protein level (Protein ENL (MLLT1, Homo sapiens, UniProt Q03111); degrader, immunoblot, item: MLLT1; 10 µM, 96 h; reference: DMSO control): 113%
Cc1nc(-c2ccccc2)c(-c2ccncc2)o1 — remaining activity (TRPM8; antagonist; HEK293; 5 µM; reference: control): 100 ± 5.78%
CNC(=O)[C@@]12C[C@@H]1[C@@H](n1cnc3c(NCCc4ccc(O)c(O)c4)nc(C#Cc4ccc(Br)s4)nc31)[C@H](O)[C@@H]2O — selectivity ratio (Adenosine receptor A3 (Mus musculus, UniProt Q61618); radioligand binding; HEK293 membranes; reference: mouse A3 over human A3 affinity): 23 to 25 fold
NC(N)=Nc1ccc(-c2ccc(-c3ccc(N=C(N)N)c(Cl)c3)o2)cc1Cl — koff (GAP50; binding, surface plasmon resonance; 1:1 binding model): 0.0312 s⁻¹
COc1ccc(C(=O)NCc2ccc(CNS(=O)(=O)c3ccc(C)cc3)cc2)cc1 — EC (C-X-C chemokine receptor type 4 (CXCR4, Homo sapiens, UniProt P61073); binding, inhibitor, competitive binding; MDA-MB-231; with: biotinylated TN14003): 100 nM
O=C(COc1cc(Cl)ccc1Cl)NCc1cccs1 — activity (Kir3.1/Kir3.2; activator, thallium flux; HEK293; concentration not given): inactive
O=C(ON1C(=O)CCC1=O)c1cc(C(F)(F)F)cc(C(F)(F)F)c1 — Hill slope (CD209 antigen (CD209, Homo sapiens, UniProt Q9NNX6); binding, grating-coupled interferometry; mannose-PEG3 chip; 2 h, no Tris): 3.1
O=C(c1ccc(CNCCCN2CCN(C3CCCCC3)CC2)cc1)c1ccc([N+](=O)[O-])cc1 — selectivity ratio (Sigma intracellular receptor 2 (TMEM97, Homo sapiens, UniProt Q5BJF2); radioligand binding; RT-4 cell membranes; reference: sigma1 over sigma2 receptor): 40 fold
NC(=O)NOCCCCCCCCCC[P+](c1ccccc1)(c1ccccc1)c1ccccc1.O=C([O-])C(F)(F)F — oxygen consumption rate (NADH dehydrogenase [ubiquinone] iron-sulfur protein 7, mitochondrial/NADH dehydrogenase [ubiquinone] iron-sulfur protein 2, mitochondrial/MT-ND1; complex I-dependent respiration, Seahorse XF96; HCT-116; 10 µM, 24 h; reference: control): 53.4 ± 4.96%
O=C1O/C(=C\c2cc(F)ccc2OCCN2CC[C@@H](F)C2)c2cc(Cc3cccc(F)c3)[nH]c(=O)c21 — ligand efficiency (PDE1C isoform PDE1C2; enzyme activity, inhibitor; with: 3H-cGMP substrate): 0.32
Cc1cc(C)n2nc(C)c(-c3ccc(F)cc3)c2n1 — Hill slope (3-oxoacyl-[acyl-carrier-protein] reductase FabG (fabG, Pseudomonas aeruginosa, UniProt O54438); enzyme activity, inhibitor, NADPH fluorescence; reverse reaction, with: 3-OH-decanoyl-NAC, NADP): 1.3
O=c1cc(N2CCC(Cc3ccccc3)CC2)[nH]c(=O)[nH]1 — inhibition (FFAR4; antagonist, β-arrestin recruitment; CHO cells; 10 µM): -13 ± 7%
CC[C@@H](C)[C@@H](NC(=O)[C@@H](Cc1ccc(O)cc1)NC(=O)[C@H]1CCCN1C(=O)[C@@H](CCCNC(=N)N)NC(=O)[C@H](N)Cc1c[nH]cn1)C(=O)N[C@H](C)C(=O)N[C@H](Cc1c[nH]cn1)C(=O)N[C@H](CCCNC(=N)N)C(=O)N[C@@H](C(=O)N[C@H](Cc1ccc(O)cc1)C(=O)N[C@H](CO)C(=O)N[C@H](Cc1ccccc1)C(N)=O)C(C)C — surface expression (Transferrin receptor protein 1 (Tfrc, Mus musculus, UniProt Q62351); flow cytometry; RAW264.7; 48 h, pH 7.4, unit not given; reference: 0 h): 0.939 and 0.972
CCCNc1cc(=O)[nH]c(=O)[nH]1 — activation (FFAR4; agonist, β-arrestin recruitment; CHO cells; 10 µM): 0%
Nc1ncnc2c1ncn2[C@@H]1O[C@H](COP(=O)(O)CP(=O)(O)OP(=O)(O)O)[C@@H](O)[C@H]1O — calcium influx (P2X purinoceptor 1 (P2RX1, Homo sapiens, UniProt P51575, D170A); calcium influx; 10 nM; reference: ionomycin response): 1.99%
COc1ccc(CN)cc1 — kcat of deuterated substrate (Maoa; substrate; pH 7.5, 25 °C): 0.0133 ± 0.00167 s⁻¹
Nc1nc2c(ncn2[C@@H]2O[C@H](COP(=O)(O)O)[C@@H](O)[C@H]2O)c(=O)[nH]1 — Km (GUK1 (Homo sapiens, UniProt Q16774); substrate, NADH-coupled; NaCl 50 mM, with: ATP 2.5 mM): 49.5 µM
COc1ccc(/C=C2\OC(=O)c3c2cc(C)[nH]c3=O)cc1 — binding free energy (PDE1C isoform PDE1C2; enzyme activity, inhibitor; with: 3H-cGMP substrate): -6.51 kcal/mol
CC(=O)O/N=C1/C(c2c(O)[nH]c3cc(Br)ccc23)=Nc2ccccc21 — remaining activity (TRPM8; antagonist; HEK293; 5 µM; reference: control): 96.9 ± 9.41%
CCCCCCCCC(=O)c1cc(O)c(O)c(O)c1 — activation (Nuclear receptor subfamily 4 group A member 2 (Homo sapiens, UniProt P43354); reporter gene, full-length homodimer NurRE reporter; 10 µM; reference: vehicle): 0.71 fold
O=C(NC1CC1)c1ccc(N2CCOc3ccc(Cl)cc32)s1 — koff (GAP50; binding, surface plasmon resonance; 1:1 binding model): 0.992 s⁻¹
C=CC(=O)N1CCC(COCC(=O)N2CCN(c3nc(-c4cnc(N)nc4C(F)F)nc(N4CCOC[C@@H]4C)n3)CC2)CC1 — remaining binding (Myosin light chain kinase 2, skeletal/cardiac muscle (MYLK2, Homo sapiens, UniProt Q9H1R3); KINOMEscan; 1 µM): 100%
CC[C@@H]1[C@H](F)C(=O)N[C@@H]1COc1nccc2cc(C(N)=O)c(OC)cc12 — inhibition (Calcium/calmodulin-dependent protein kinase type 1D (CAMK1D, Homo sapiens, UniProt Q8IU85); ATP-site probe binding, ActivX profiling; THP-1 cell lysate; 0.2 mM, Lys2 site): 5.2%
CN1CCN(C(=O)c2ccc3cc(CCNc4ccnc5ccc(C#N)cc45)ccc3c2)CC1 — residence time ratio (Cyclin-dependent kinase 19, with cyclin C (CDK19, Homo sapiens, UniProt Q9BWU1); TR-FRET kinetics; reference: compound over Senexin B): 2 to 3 fold
CC(C)(C)CNc1cc(=O)[nH]c(=O)[nH]1 — agonist effect (FFAR4; β-arrestin recruitment; CHO; 10 µM; reference: 30 µM TUG-891): 1%
C[C@]12CCC(=O)C=C1CC[C@@H]1[C@@H]2[C@@H](O)C[C@@]2(C)[C@H]1CC[C@]2(O)C(=O)CO — maximal response (Mineralocorticoid receptor (NR3C2, Homo sapiens, UniProt P08235); reporter gene, agonist; reference: baseline): 73 fold
COc1cc(Nc2ncc3c(n2)-c2ccc(Cl)cc2C(c2c(F)cccc2OC)=NC3)ccc1C(=O)O — remaining activity (MAPK1; kinase activity; 1 µM): 105%
NCc1ccc(C(F)(F)F)cc1 — pKa (Maoa; kcat pH profile ES complex, substrate; pH 6.5-9.5): 7.5 ± 0.1
Nc1ncnc2c1ncn2[C@@H]1O[C@H](COP(=O)(O)OP(=O)(O)OP(=O)(O)O)[C@@H](O)[C@H]1O — Kd (T1, ssDNA, aptamer; ITC): 746 nM
COc1ccc([C@@H]2CC(c3cccs3)=NN2C(=O)c2ccco2)cc1OC — kon (GAP50; binding, surface plasmon resonance; 1:1 binding model): 22100 M⁻¹ s⁻¹
C1=C/COCc2cc(ccc2OCCN2CCCC2)Nc2nccc(n2)-c2cccc(c2)COC/1 — binding (MAP3K12; concentration not given, kinase construct DLK; reference: control): 22%
Cc1cccc(COc2ccccc2C(=O)N(CCCN)Cc2cccs2)c1 — exchange rate kex (TRPM8; 19F CPMG relaxation dispersion; concentration not given, 25 °C, with: saturating ligand): 12000 ± 4000 s⁻¹
NC(=O)NO — oxygen consumption rate (NADH dehydrogenase [ubiquinone] iron-sulfur protein 7, mitochondrial/NADH dehydrogenase [ubiquinone] iron-sulfur protein 2, mitochondrial/MT-ND1; complex I-dependent respiration, Seahorse XF96; HCT-116; 1000 µM, 24 h; reference: control): 80.2 ± 10.8%
O=C(COP(=O)(O)O)[C@@H](O)[C@H](O)[C@H](O)COP(=O)(O)O — enzyme activity (PGM1 (Homo sapiens, UniProt P36871); 0.125 mM, unit not given; reference: activity at 0 mM set to 100): 102 and 103 and 99.8
CC1=C(/C=C/C(C)=C/C=C/C(C)=C/C=C/C=C(C)/C=C/C=C(C)/C=C/C2=C(C)CCCC2(C)C)C(C)(C)CCC1 — quenching rate constant (Beta-lactoglobulin (LGB, Bos taurus, UniProt P02754); intrinsic fluorescence; 303 K): 1.14e+12 ± 1.3e+11 M⁻¹ s⁻¹
C[C@H](CCC(C)(C)O)[C@H]1CC[C@H]2[C@@H]3CC=C4C[C@@](C)(O)CC[C@]4(C)[C@H]3CC[C@]12C — open probability (Glutamate NMDA receptor; GRIN1/GRIN2B (GRIN1/GRIN2B, Homo sapiens, UniProt Q05586+Q13224, A652C); two-electrode voltage clamp; Xenopus oocytes; concentration not given, with PAM, from MTSEA potentiation, with: MTSEA): 0.07 ± 0.004
O=C(O)CCCCCNc1cc(=O)[nH]c(=O)[nH]1 — activation (FFAR4; agonist, β-arrestin recruitment; CHO cells; 10 µM): 0%
[O-][S+]1CCCCS1 (centres unmarked) — SOD1 dimer level (Superoxide dismutase [Cu-Zn] (SOD1, Homo sapiens, UniProt P00441, G94A); target engagement; SOD1 G93A transgenic mice, blood; intravenous, 10 mg/kg once daily): 68% and 63%
O=C1NC(=O)C(c2cn(CCCn3ccnc3)c3ccccc23)=C1Nc1ccccc1 — remaining activity (TRPM8; antagonist; HEK293; 5 µM; reference: control): 100 ± 5.62%
O=c1cc(NCCCCCCCO)[nH]c(=O)[nH]1 — activation (FFAR4; agonist, β-arrestin recruitment; CHO cells; 10 µM): 0%
O=c1nc(SCc2ccc(C(F)(F)F)cc2)nc(SCc2csc3ccc(Cl)cc23)[nH]1 — decatenated DNA (TOP2A; decatenation; 1.95 µM, replicate 2): 0%
O=c1cc(NCCc2cccs2)[nH]c(=O)[nH]1 — agonist effect (FFAR4; agonist, β-arrestin recruitment; CHO cells; 10 µM; reference: 30 µM TUG-891): 1 ± 1%
NC(=O)NOCCCCCCCCCCCCCC[P+](c1ccccc1)(c1ccccc1)c1ccccc1.O=C([O-])C(F)(F)F — oxygen consumption rate (NADH dehydrogenase [ubiquinone] iron-sulfur protein 7, mitochondrial/NADH dehydrogenase [ubiquinone] iron-sulfur protein 2, mitochondrial/MT-ND1; complex I-dependent respiration, Seahorse XF96; HCT-116; 0.1 µM, 24 h; reference: control): 84.1 ± 5.17%
Cc1ccc(C(=O)Nc2ccc3ccccc3c2)o1 — current potentiation (Otop1 (Mus musculus, UniProt Q80VM9); proton current, potentiator, whole-cell patch-clamp; HEK-293T; 10 µM, pH 5.5; reference: current before compound): 1.64 fold
O=c1cc(NCCc2ccc(Cl)cc2)[nH]c(=O)[nH]1 — agonist effect (FFAR4; agonist, β-arrestin recruitment; CHO cells; 10 µM; reference: 30 µM TUG-891): 0%
O=c1nc(SCc2cc(F)cc(C(F)(F)F)c2)nc(SCc2ccc3nc(OCCN4CCOCC4)ccc3c2)[nH]1 — linear DNA (TOP2A; DNA cleavage; 15.6 µM, replicate 2): 0%
